Measured values pooled from the literature.
Compare with care: the assays were run in different laboratories. ± marks the error that the study gave.
Chain of UniProt P69687 (whole entry, looked up): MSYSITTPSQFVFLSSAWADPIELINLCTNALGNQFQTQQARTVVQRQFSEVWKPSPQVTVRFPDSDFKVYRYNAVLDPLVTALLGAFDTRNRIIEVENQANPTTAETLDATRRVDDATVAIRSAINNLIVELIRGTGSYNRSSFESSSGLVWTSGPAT
Chain of UniProt Q9NZC7 (whole entry, looked up): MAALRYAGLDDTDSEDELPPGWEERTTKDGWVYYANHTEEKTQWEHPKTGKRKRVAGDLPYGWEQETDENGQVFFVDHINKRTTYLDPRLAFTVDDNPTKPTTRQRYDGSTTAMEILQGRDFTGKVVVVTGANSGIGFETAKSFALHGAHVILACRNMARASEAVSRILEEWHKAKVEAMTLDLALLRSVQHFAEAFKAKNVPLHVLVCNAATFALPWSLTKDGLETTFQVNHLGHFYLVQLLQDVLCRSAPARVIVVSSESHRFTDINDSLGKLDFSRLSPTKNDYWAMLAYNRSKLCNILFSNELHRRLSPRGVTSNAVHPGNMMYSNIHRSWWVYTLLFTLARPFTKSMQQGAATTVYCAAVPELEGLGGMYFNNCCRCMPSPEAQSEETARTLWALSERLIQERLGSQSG
Chain of UniProt P22455 (whole entry, looked up): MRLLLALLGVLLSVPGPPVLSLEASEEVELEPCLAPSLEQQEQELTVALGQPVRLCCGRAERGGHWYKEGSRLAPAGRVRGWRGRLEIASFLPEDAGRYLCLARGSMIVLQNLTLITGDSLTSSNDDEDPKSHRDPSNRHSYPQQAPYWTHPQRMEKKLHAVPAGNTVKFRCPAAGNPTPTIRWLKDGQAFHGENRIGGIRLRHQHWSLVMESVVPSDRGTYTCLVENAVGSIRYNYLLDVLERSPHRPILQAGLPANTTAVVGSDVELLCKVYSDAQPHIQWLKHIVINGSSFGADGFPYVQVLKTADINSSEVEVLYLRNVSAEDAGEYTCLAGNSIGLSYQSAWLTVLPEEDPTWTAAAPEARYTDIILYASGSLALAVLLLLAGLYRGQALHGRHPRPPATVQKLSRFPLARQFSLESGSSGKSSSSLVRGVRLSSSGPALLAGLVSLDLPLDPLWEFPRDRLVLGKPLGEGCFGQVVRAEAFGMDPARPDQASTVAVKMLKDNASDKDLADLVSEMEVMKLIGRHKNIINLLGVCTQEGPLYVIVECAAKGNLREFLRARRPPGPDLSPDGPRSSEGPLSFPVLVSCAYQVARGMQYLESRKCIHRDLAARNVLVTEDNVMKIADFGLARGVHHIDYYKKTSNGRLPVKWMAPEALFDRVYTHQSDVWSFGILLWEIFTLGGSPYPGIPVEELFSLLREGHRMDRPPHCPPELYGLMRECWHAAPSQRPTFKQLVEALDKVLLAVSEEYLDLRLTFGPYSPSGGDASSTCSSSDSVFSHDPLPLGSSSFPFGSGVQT
Chain of UniProt Q9NQG5 (whole entry, looked up): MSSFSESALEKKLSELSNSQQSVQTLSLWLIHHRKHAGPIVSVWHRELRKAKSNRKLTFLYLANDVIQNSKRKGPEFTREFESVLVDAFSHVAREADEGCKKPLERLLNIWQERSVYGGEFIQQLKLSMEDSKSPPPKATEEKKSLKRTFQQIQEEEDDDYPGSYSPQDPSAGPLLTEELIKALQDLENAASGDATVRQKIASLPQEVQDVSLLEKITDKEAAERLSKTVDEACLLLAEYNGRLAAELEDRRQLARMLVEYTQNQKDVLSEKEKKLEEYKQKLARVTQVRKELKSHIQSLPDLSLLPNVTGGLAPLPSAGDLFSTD
Chain of UniProt P45973 (whole entry, looked up): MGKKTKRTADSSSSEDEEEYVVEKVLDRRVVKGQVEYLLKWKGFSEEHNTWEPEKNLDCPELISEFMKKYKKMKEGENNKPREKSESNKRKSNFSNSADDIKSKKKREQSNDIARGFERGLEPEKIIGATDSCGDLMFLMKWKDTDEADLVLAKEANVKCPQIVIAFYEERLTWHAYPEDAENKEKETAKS
Chain of UniProt P63104 (whole entry, looked up): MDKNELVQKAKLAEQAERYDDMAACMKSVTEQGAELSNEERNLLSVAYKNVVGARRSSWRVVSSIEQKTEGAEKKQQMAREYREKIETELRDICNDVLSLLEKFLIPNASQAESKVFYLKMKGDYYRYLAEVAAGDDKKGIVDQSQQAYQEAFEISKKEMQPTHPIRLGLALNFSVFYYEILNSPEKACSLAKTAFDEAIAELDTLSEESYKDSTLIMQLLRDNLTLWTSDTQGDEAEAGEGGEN
Chain of UniProt P05067 (whole entry, unmodified, looked up): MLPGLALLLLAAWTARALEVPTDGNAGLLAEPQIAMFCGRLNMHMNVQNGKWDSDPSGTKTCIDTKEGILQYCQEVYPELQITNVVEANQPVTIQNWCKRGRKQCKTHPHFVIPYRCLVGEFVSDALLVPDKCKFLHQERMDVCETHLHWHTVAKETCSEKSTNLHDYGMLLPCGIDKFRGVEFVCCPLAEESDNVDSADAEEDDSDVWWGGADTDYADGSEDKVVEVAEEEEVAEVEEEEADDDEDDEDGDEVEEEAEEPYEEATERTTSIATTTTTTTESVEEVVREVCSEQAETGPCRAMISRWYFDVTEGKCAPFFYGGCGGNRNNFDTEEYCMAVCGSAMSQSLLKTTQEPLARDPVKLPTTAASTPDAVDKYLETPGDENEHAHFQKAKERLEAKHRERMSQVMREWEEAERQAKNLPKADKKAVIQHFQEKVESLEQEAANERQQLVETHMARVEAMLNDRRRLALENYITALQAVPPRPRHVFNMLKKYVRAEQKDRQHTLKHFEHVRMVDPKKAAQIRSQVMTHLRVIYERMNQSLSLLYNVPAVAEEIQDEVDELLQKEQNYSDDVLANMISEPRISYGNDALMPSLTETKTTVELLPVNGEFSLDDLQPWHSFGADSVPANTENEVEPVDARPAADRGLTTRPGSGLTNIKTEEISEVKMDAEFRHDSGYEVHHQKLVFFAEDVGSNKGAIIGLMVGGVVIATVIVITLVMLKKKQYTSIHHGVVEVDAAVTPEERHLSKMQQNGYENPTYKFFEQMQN
Chain of UniProt P26718 (whole entry, looked up): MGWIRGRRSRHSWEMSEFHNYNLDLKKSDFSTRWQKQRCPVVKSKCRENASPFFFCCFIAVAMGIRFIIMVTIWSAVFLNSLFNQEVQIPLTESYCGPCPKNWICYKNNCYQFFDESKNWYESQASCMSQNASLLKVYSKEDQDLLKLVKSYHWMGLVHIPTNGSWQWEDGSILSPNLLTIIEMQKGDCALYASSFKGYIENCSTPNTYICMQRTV
Chain of UniProt Q39204 (whole entry, looked up): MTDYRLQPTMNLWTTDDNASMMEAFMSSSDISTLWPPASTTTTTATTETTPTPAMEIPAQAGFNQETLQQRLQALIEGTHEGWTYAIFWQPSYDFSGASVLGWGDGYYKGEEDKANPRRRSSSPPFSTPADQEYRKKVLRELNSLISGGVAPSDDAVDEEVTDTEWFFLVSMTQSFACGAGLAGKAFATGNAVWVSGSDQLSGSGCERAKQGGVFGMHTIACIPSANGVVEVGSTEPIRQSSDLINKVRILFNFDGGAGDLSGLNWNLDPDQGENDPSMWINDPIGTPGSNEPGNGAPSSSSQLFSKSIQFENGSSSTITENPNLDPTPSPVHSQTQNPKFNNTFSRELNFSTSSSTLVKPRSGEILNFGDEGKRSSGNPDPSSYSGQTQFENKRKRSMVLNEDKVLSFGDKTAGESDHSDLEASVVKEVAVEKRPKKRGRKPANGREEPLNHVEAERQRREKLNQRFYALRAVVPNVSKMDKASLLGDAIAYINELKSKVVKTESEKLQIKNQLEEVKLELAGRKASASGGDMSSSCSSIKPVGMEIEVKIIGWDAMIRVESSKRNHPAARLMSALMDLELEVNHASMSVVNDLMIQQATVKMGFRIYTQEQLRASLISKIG
Chain of UniProt O35082 (whole entry, looked up): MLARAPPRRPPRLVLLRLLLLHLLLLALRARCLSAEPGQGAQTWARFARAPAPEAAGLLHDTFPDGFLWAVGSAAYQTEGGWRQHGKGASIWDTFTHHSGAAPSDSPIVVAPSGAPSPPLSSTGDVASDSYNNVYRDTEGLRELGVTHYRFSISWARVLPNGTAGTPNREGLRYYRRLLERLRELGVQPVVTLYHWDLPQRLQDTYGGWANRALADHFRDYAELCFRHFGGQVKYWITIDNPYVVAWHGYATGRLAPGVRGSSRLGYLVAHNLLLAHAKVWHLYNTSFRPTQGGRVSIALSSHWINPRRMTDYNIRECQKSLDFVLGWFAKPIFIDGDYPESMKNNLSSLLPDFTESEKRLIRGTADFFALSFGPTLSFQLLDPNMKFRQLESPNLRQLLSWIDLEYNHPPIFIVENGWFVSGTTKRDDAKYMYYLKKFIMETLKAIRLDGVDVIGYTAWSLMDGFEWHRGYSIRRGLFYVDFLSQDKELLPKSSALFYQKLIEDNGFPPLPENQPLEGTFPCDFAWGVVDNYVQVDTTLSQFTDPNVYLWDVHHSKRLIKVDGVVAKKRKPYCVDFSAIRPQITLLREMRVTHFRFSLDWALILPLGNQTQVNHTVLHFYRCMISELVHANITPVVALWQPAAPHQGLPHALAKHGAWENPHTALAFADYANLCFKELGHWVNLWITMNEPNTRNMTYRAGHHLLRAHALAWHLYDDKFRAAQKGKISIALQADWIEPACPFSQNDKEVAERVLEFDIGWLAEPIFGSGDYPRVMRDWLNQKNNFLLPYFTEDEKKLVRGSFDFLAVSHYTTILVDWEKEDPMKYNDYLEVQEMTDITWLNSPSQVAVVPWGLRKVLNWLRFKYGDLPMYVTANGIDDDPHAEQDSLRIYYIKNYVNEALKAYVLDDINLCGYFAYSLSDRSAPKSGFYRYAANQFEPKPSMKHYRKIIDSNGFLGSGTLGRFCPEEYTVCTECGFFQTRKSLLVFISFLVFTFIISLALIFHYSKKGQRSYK
Chain of UniProt Q05097 (whole entry, looked up): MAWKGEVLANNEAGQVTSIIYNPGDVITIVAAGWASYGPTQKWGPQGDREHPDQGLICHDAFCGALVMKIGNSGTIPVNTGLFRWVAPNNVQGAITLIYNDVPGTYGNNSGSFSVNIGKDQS

| SMILES | target | test | system | setting | Kd [nM] |
| --- | --- | --- | --- | --- | --- |
| CC[C@H](C)[C@H](NC(=O)[C@H](Cc1ccc(O)cc1)NC(=O)[C@H](CCCNC(=N)N)NC(=O)[C@H](Cc1ccc(O)cc1)NC(=O)[C@H](CCSC)NC(C)=O)C(=O)N[C@H]1CSCc2cccc(c2)CSC[C@@H](C(=O)N[C@@H](CC(C)C)C(=O)N[C@@H](C)C(=O)N[C@@H](CO)C(=O)N[C@@H](Cc2ccc(O)cc2)C(=O)NCC(=O)N[C@@H](CO)C(=O)NCC(=O)N[C@@H](CO)C(=O)NCC(=O)N[C@@H](CO)C(=O)N[C@@H](CC(=O)O)C(=O)N[C@@H](Cc2ccc(O)cc2)C(=O)N[C@@H](CCCCN)C(=O)N[C@@H](CC(=O)O)C(=O)N[C@@H](CC(=O)O)C(=O)N[C@@H](CC(=O)O)C(=O)N[C@@H](CC(=O)O)C(=O)N[C@@H](CCCCN)C(N)=O)NC(=O)[C@H](CC(N)=O)NC(=O)[C@H](CO)NC(=O)[C@H](CC(C)C)NC(=O)[C@H]([C@@H](C)O)NC1=O | FGFR4 (Homo sapiens, UniProt P22455) | binding, BLI |  |  | > 10000 |
| CN(C)C(=O)C(NC(=O)c1ccccc1-c1ccc(C(F)(F)F)cc1)c1cccc(C(F)(F)F)c1 (centres unmarked) | NKG2-D type II integral membrane protein (KLRK1, Homo sapiens, UniProt P26718) | binding, surface plasmon resonance |  | 25 °C, 1:1 binding model | 3900 |
| CC[C@H](C)[C@H](NC(=O)[C@@H]1CCCN1C(=O)[C@@H]1CCCN1C(=O)[C@@H]1CCCN1C(=O)[C@@H](NC(=O)[C@H](CC(N)=O)NC(=O)[C@H](Cc1ccccc1)NC(=O)[C@H](C)N)[C@@H](C)CC)C(=O)N[C@@H](Cc1ccc(O)cc1)C(=O)N[C@H](C(=O)N[C@@H](CO)C(=O)N[C@@H](CCCNC(=N)N)C(=O)N[C@@H](C)C(=O)NCC(=O)NCC(=O)NCC(=O)NCC(=O)NCC(=O)N[C@@H](Cc1c[nH]cn1)C(=O)N[C@@H](CO)C(=O)N1CCC[C@H]1C(=O)N1CCC[C@H]1C(=O)N1CCC[C@H]1C(=O)N[C@@H](C)C(=O)N[C@@H](Cc1ccc(O)cc1)C(=O)N[C@H](C(=O)N1CCC[C@H]1C(=O)N[C@@H](CCSC)C(=O)N[C@@H](CO)C(=O)O)[C@@H](C)O)[C@@H](C)O | WW domain-containing oxidoreductase, WW1-WW2 tandem domains (WWOX, Homo sapiens, UniProt Q9NZC7) | ITC | tandem WW1-WW2 domain | pH 7.8, 20 °C, some values lower limits only | 21000 ± 1600 |
| CC(=O)NC1C(OC2C(O)C(O)OC(CO)C2O)OC(CO)C(O)C1OC1OC(CO)C(O)C(OC2OC(CO)C(O)C(O)C2O)C1OC1OC(C)C(O)C(O)C1O (centres unmarked) | sly, domain 4 (Streptococcus suis, UniProt Q55996) | binding |  |  | 6400 |
| CC(C)=CCC/C(C)=C/CC/C(C)=C/C(=O)O | Juvenile hormone acid O-methyltransferase (JHAMT, Bombyx mori, UniProt Q767F1, Q14E) | binding, fluorescence binding |  | pH 8.0, 25 °C | 190 ± 40 |
| O=C(/C=C/c1ccccc1Br)c1ccc(OS(=O)(=O)c2cccs2)cc1 | CP, capsid (Tobacco mosaic virus, UniProt P69687) | binding, MST |  |  | 301 |
| CC[C@H](C)[C@H](NC(=O)[C@H](Cc1c[nH]cn1)NC(=O)[C@H](CCCCNC(=O)[C@@H](NC(=O)[C@H](CCCCN)NC(=O)CSC[C@H](NC(=O)[C@H](Cc1ccccc1)NC(=O)[C@H](CCCCNC(=O)[C@H](CC(C)C)NC(=O)[C@H](CCCCN)NC(=O)[C@H](CCCCN)NC(=O)C[C@@H]1O[C@@H](C)[C@@H](O)[C@@H](O)[C@@H]1O)NC(=O)[C@H](CC(C)C)NC(=O)[C@H](CCCCN)NC(=O)[C@H](CCCCN)NC(=O)CCS[C@@H]1O[C@H](CO)[C@H](O)[C@H](O)[C@H]1O)C(N)=O)[C@@H](C)CC)NC(=O)[C@@H](NC(=O)[C@H](CCCCN)NC(=O)CSC[C@H](NC(=O)[C@H](Cc1ccccc1)NC(=O)[C@H](CCCCNC(=O)[C@H](CC(C)C)NC(=O)[C@H](CCCCN)NC(=O)[C@H](CCCCN)NC(=O)C[C@@H]1O[C@@H](C)[C@@H](O)[C@@H](O)[C@@H]1O)NC(=O)[C@H](CC(C)C)NC(=O)[C@H](CCCCN)NC(=O)[C@H](CCCCN)NC(=O)CCS[C@@H]1O[C@H](CO)[C@H](O)[C@H](O)[C@H]1O)C(N)=O)[C@@H](C)CC)C(N)=O | lecA (Pseudomonas aeruginosa, UniProt Q05097) | binding, ITC |  | pH 7.5 | 250 |
| CC(C)C[C@H](NC(=O)[C@@H](N)Cc1ccccc1)C(=O)O | Amyloid-beta precursor protein, amyloid-beta 1-40 Y10A (APP, Homo sapiens, UniProt P05067, Y681A) |  |  | concentration not given | 135000 ± 71300 |
| CC[C@H](C)[C@H](NC(=O)[C@@H](NC(=O)[C@H](C)NC(=O)[C@@H](NC(=O)[C@H](Cc1c[nH]c2ccccc12)NC(=O)[C@H](CCC(=O)O)NC(=O)[C@H](CO)NC(=S)Nc1ccc2c(c1)C(=O)OC21c2ccc(O)cc2Oc2cc(O)ccc21)C(C)C)C(C)C)C(=O)N1CCC[C@H]1C(=O)N[C@@H](Cc1ccccc1)C(=O)N[C@@H](CC(C)C)C(=O)N[C@H](C(=O)N[C@@H](CC(N)=O)C(=O)N[C@@H](CC(C)C)C(=O)O)[C@@H](C)O | Rgg transcriptional regulator (Streptococcus pneumoniae, UniProt A0A0E7KI02) | binder, fluorescence polarization |  | 20 min, pH 7.4, 20 °C, fluorescein-labelled peptide | > 100000 |
| C[C@@H](O)[C@H](NC(=O)[C@@H]1CCCN1C(=O)[C@H](COP(=O)(O)O)NC(=O)[C@H](Cc1ccc(O)cc1)NC(=O)[C@H](CO)NC(=O)[C@@H]1CCCN1C(=O)[C@H](CO)NC(=O)[C@@H](NC(=O)[C@@H]1CCCN1C(=O)[C@H](CO)NC(=O)[C@H](Cc1ccc(O)cc1)NC(=O)[C@H](CO)NC(=O)[C@@H]1CCCN1)[C@@H](C)O)C(=O)N[C@@H](CO)C(=O)N1CCC[C@H]1C(=O)N[C@@H](CO)C(=O)O | Regulation of nuclear pre-mRNA domain-containing protein 1B, CID domain (RPRD1B, Homo sapiens, UniProt Q9NQG5) | binding, fluorescence polarization |  | pH 8.0, room temperature | 22500 ± 3000 |
| CCN(CCCC[C@H](NC(=O)[C@H](CC(C)C)NC(=O)[C@H](C)NC(=O)[C@H](Cc1ccc(CN)cc1)NC(=O)c1cccnc1)C(=O)N[C@@H](CO)C(N)=O)C(C)C | Chromobox protein homolog 5, chromodomain (Homo sapiens, UniProt P45973) | isothermal titration calorimetry |  | 25 °C | 3910 |
| CC[C@H](C)[C@H](NC(=O)[C@H](CCCNC(=N)N)NC(=O)[C@H](CCCCN)NC(=O)[C@@H](NC(=O)[C@H](C)NC(=O)[C@H](CCCNC(=N)N)NC(=O)[C@H](CCC(N)=O)NC(=O)[C@H](CO)NC(=O)[C@H](CCCCN)NC(=O)[C@H](CC(N)=O)NC(=O)[C@@H](N)CCCNC(=N)N)[C@@H](C)O)C(=O)N[C@@H](CO)C(=O)N[C@@H](Cc1c[nH]cn1)C(=O)N[C@@H](CCSC)C(=O)N1CCC[C@H]1C(=O)N[C@@H](CO)C(=O)N[C@@H](CCCNC(=N)N)C(=O)N1CCC[C@H]1C(=O)N[C@@H](CCC(=O)O)C(=O)N[C@@H](CC(C)C)C(=O)N[C@@H](CO)C(=O)N[C@@H](C)C(=O)N[C@H](C(=O)N[C@@H](C)C(=O)N[C@H](C(=O)N[C@@H](CC(=O)O)C(=O)N[C@@H](CC(C)C)C(=O)N[C@@H](CCCNC(=N)N)C(=O)N[C@@H](CCCCN)C(=O)N[C@@H](CC(=O)O)C(=O)N[C@@H](CCCCN)C(=O)N[C@@H](C)C(=O)N[C@@H](CCCCN)C(=O)N[C@@H](COP(=O)(O)O)C(=O)N[C@@H](CSC/C=C(\C)CC/C=C(\C)CCC=C(C)C)C(=O)OC)[C@@H](C)O)C(C)C | YWHAZ (Homo sapiens, UniProt P63104) | binding, stopped-flow fluorescence polarization |  |  | 370 |
| CC(C)C[C@H](NC(=O)[C@H](CCCNC(=N)N)NC(=O)[C@H](CCC(=O)O)NC(=O)[C@H](CCCCN)NC(=O)[C@H](CCCNC(=N)N)NC(=O)[C@H](CCCCN)NC(=O)[C@H](CCC(=O)O)NC(=O)[C@H](CC(C)C)NC(=O)[C@H](Cc1ccccc1)NC(=O)[C@H](CCCNC(=N)N)NC(=O)[C@H](C)NC(=O)[C@H](CC(C)C)NC(=O)[C@H](CO)NC(=O)[C@]1(C)CCCC=CCCC[C@](C)(NC(=O)[C@@H]2CCCN2C(=O)[C@@H](NC(=O)[C@H](CO)NC(=O)c2ccc3c(c2)C(=O)OC32c3ccc(N(C)C)cc3Oc3cc(N(C)C)ccc32)C(C)C)C(=O)N[C@@H](C)C(=O)N[C@@H](CCCNC(=N)N)C(=O)N[C@@H](CCCCN)C(=O)N1)C(=O)O | Transcription factor MYC2 (MYC2, Arabidopsis thaliana, UniProt Q39204) | binding, fluorescence anisotropy |  | pH 8.0, MYC2 residues 55-259 | 1500 ± 200 |
| O=C(/C=C/c1ccc(F)cc1)c1ccccc1OCCSc1nnc(-c2ccccc2)c(-c2ccccc2)n1 | CP (Tobacco mosaic virus, UniProt P69687) | binding, MST |  |  | 275 |
| C#CC[C@H](NC(=O)CNC(=O)[C@H](CO)NC(=O)[C@@H]1CCCCNC(=O)CCCC(=O)N[C@@H](CCSC)C(=O)N[C@@H](Cc2c[nH]c3ccccc23)C(=O)N2CCC[C@H]2C(=O)N[C@@H](Cc2c[nH]cn2)C(=O)N[C@@H](CCCNC(=N)N)C(=O)N[C@@H](C(C)C)C(=O)N[C@@H]([C@@H](C)O)C(=O)N[C@@H](C)C(=O)N(C)[C@@H](C)C(=O)N1)C(=O)O | Microtubule-associated protein 1 light chain 3 beta (Homo sapiens, UniProt Q9GZQ8) | fluorescence polarization |  |  | 192 ± 39 |
| NCCCC[C@H](NC(=O)[C@H](CC(N)=O)NC(=O)[C@H](CCCCNC(=O)[C@H](Cc1ccc(B(O)O)cc1)NC(=O)[C@H](Cc1ccc(O)cc1)NC(=O)[C@@H](N)Cc1ccc(B(O)O)cc1)NC(=O)[C@H](Cc1ccc(B(O)O)cc1)NC(=O)[C@H](Cc1ccc(O)cc1)NC(=O)[C@@H](N)Cc1ccc(B(O)O)cc1)C(=O)N[C@@H](CO)C(=O)N[C@@H](Cc1ccc(O)cc1)C(N)=O | HIV-1 TAR RNA | binding, dot blot |  |  | 5200 ± 1500 |
| CC(C)C[C@H](NC(=O)[C@@H]1CCCN1C(=O)[C@H](CC(=O)O)NC(=O)[C@H](CO)NC(=O)[C@H](C)NC(=O)c1cc(-c2ccccc2)nc2ccccc12)C(=O)NCC(=O)N[C@H](C(=O)N[C@H](C(=O)N[C@@H](CCCNC(=N)N)C(=O)NCC(=O)N[C@@H](CCCNC(=N)N)C(=O)N[C@@H](C)C(=O)N[C@@H](CCCNC(=N)N)C(=O)N[C@H](CCCNC(=O)c1ccc2c(c1)C(=O)OC21c2ccc(N(C)C)cc2Oc2cc(N(C)C)ccc21)C(N)=O)C(C)C)C(C)C | Klotho (Kl, Mus musculus, UniProt O35082) | BLI competition binding |  | 30 min, 30 °C, added: 100 nM mouse Klotho, immobilized Pep-10-Biotin | 1.3 ± 0.4 |

For quick reference, copied from above:
| SMILES | target | test | system | setting | Kd [nM] |
| --- | --- | --- | --- | --- | --- |
| CC(C)C[C@H](NC(=O)[C@@H]1CCCN1C(=O)[C@H](CC(=O)O)NC(=O)[C@H](CO)NC(=O)[C@H](C)NC(=O)c1cc(-c2ccccc2)nc2ccccc12)C(=O)NCC(=O)N[C@H](C(=O)N[C@H](C(=O)N[C@@H](CCCNC(=N)N)C(=O)NCC(=O)N[C@@H](CCCNC(=N)N)C(=O)N[C@@H](C)C(=O)N[C@@H](CCCNC(=N)N)C(=O)N[C@H](CCCNC(=O)c1ccc2c(c1)C(=O)OC21c2ccc(N(C)C)cc2Oc2cc(N(C)C)ccc21)C(N)=O)C(C)C)C(C)C | Klotho (Kl, Mus musculus, UniProt O35082) | BLI competition binding |  | 30 min, 30 °C, added: 100 nM mouse Klotho, immobilized Pep-10-Biotin | 1.3 ± 0.4 |
| CC(C)=CCC/C(C)=C/CC/C(C)=C/C(=O)O | Juvenile hormone acid O-methyltransferase (JHAMT, Bombyx mori, UniProt Q767F1, Q14E) | binding, fluorescence binding |  | pH 8.0, 25 °C | 190 ± 40 |
